Measured values pooled from the literature.
Each line is one published result; not all experiments were run side by side. Values joined by “and” are separate records of one study, mostly repeats; a detail may differ. Numbers after ± are the reported error.
HTR1D: 5-hydroxytryptamine receptor 1D (HTR1D, Homo sapiens, UniProt P28221)
Chain of UniProt P28221 (whole entry, looked up): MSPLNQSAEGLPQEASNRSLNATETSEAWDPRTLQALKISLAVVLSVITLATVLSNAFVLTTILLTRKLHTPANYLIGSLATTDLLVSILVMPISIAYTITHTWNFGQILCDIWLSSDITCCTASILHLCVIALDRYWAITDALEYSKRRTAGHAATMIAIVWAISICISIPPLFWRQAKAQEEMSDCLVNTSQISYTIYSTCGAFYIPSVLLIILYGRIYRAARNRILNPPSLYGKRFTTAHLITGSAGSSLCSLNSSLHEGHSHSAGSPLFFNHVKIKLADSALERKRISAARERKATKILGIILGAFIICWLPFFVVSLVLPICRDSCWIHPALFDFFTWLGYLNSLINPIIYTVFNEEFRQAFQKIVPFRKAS
BRD7: Bromodomain-containing protein 7 (BRD7, Homo sapiens, UniProt Q9NPI1)
Chain of UniProt Q15858 (whole entry, looked up): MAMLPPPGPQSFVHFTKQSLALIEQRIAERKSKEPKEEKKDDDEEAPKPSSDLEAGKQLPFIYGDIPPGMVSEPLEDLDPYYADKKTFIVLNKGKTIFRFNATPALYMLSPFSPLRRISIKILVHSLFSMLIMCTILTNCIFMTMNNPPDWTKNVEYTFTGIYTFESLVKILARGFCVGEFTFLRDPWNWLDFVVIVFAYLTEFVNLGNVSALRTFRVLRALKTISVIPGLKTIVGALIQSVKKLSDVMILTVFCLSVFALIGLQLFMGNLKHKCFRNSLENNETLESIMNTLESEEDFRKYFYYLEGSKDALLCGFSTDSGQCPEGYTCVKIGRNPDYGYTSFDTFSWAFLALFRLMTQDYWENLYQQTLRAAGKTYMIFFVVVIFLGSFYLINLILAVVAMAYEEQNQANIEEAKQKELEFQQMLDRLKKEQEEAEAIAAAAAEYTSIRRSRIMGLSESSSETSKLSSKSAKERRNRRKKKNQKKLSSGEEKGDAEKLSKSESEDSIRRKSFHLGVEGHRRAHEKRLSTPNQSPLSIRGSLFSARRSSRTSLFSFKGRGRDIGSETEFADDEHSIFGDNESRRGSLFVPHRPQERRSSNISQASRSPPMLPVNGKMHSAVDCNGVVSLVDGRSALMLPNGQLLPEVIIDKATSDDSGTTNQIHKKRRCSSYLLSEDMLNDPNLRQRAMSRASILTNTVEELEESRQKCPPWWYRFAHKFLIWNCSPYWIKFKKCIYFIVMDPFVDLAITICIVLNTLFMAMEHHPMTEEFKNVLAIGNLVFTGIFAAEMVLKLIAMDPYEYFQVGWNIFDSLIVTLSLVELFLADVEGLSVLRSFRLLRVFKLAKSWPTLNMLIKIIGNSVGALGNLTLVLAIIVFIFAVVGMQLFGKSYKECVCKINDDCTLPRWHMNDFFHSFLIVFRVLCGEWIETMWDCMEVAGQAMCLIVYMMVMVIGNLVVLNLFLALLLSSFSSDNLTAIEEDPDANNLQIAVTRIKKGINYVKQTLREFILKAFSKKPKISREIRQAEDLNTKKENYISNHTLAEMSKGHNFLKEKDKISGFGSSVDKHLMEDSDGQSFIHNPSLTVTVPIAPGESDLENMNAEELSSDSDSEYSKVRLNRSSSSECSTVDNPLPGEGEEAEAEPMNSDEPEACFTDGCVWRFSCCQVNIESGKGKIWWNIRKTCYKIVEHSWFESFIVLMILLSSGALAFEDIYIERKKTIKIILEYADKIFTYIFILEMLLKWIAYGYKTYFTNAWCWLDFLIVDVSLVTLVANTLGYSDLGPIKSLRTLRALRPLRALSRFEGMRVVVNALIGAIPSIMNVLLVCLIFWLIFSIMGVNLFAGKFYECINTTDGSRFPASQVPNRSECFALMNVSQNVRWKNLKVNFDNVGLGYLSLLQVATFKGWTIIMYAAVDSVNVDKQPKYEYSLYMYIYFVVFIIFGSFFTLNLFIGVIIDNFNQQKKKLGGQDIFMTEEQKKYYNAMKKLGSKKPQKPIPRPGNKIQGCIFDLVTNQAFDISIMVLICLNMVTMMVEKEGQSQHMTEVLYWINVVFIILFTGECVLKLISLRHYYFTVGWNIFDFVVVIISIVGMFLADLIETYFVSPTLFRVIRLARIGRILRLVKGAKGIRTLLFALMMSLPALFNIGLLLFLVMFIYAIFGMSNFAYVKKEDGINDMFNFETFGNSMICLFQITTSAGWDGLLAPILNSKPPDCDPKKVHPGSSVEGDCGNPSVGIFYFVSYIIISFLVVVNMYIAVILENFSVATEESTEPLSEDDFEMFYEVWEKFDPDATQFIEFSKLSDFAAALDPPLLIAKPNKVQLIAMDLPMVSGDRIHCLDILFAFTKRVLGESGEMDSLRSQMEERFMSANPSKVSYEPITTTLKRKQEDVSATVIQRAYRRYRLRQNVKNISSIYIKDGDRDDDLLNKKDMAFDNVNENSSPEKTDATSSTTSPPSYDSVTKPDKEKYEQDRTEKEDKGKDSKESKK
Chain of UniProt P51575 (whole entry, unmodified, looked up): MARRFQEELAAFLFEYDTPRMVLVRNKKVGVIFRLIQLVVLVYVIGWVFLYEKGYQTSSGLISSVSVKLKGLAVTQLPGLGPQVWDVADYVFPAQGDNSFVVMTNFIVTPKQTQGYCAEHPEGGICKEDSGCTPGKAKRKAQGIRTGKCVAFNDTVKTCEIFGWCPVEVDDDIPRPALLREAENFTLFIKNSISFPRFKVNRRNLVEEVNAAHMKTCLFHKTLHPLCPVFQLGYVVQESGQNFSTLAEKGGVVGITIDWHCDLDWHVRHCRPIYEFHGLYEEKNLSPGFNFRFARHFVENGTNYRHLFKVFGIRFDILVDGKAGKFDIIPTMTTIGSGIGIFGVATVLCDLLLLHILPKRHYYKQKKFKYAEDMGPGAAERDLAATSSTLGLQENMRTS
Chain of UniProt Q8N884 (whole entry, looked up): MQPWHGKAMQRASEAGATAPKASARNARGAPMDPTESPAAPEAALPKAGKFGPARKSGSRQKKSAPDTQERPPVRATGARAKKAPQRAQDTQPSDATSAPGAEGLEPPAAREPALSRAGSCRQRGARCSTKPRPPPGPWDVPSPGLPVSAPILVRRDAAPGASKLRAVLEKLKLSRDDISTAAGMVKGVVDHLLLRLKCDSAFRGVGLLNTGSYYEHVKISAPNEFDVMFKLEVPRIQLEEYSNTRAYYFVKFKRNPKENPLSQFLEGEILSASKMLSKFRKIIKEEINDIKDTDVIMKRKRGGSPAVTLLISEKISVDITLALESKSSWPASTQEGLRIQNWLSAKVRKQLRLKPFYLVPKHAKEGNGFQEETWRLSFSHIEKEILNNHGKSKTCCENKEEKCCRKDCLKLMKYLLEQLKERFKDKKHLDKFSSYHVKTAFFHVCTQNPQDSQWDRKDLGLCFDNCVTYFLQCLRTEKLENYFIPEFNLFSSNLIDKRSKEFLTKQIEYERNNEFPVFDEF
Chain of UniProt P43115 (whole entry, looked up): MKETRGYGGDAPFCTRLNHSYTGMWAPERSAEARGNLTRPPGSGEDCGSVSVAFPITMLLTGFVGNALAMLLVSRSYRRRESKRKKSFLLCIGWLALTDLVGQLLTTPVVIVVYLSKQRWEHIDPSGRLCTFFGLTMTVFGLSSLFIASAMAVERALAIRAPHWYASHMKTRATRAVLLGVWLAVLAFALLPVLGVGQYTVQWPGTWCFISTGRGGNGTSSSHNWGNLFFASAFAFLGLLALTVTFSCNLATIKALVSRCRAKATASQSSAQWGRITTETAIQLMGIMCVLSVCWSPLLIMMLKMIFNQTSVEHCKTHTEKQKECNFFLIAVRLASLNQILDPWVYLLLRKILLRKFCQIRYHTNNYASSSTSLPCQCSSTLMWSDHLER
Chain of UniProt O95382 (whole entry, looked up): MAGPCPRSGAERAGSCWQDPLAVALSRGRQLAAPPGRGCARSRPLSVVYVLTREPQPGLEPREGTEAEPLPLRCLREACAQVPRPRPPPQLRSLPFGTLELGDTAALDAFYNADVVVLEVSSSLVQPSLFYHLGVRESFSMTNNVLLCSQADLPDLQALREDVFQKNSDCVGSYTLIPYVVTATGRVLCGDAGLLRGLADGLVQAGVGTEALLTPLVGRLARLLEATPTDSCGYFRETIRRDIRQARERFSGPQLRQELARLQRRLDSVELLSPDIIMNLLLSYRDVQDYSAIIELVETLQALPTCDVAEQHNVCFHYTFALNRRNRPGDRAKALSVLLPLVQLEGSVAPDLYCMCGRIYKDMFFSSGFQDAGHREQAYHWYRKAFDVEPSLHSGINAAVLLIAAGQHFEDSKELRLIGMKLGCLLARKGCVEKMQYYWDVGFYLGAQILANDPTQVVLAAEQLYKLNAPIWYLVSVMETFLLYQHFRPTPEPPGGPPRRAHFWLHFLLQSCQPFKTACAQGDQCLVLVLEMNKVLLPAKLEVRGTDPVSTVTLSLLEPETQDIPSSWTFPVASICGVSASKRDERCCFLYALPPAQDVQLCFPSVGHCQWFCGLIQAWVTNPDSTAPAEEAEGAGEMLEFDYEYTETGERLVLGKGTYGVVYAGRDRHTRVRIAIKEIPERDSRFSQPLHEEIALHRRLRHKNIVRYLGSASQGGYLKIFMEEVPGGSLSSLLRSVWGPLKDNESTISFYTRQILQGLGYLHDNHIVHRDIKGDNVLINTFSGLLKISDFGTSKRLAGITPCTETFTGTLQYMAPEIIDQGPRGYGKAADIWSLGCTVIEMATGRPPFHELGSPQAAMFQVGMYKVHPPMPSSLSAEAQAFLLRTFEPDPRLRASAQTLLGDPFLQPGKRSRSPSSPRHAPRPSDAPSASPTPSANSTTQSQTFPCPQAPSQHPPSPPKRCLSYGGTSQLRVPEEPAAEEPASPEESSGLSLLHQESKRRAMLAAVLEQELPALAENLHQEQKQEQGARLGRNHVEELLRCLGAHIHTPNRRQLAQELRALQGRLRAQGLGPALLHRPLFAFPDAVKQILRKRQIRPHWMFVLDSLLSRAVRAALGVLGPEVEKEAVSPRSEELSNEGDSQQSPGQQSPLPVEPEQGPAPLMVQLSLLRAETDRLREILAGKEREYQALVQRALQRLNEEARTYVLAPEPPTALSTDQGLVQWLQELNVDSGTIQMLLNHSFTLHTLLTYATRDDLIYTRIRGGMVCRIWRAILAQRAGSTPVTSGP

The inhibition of CC1=NNC(=O)C1=NNc1ccc(S(N)(=O)=O)cc1 is reported as 29.7% (bovine α-glucosidase; enzyme activity, inhibitor, glucose oxidase; 50 µg/mL, added: maltose).
With O=C(CN1CCO[C@H](COc2cccc(Cl)c2)C1)N1CCc2ccccc21 the inhibition was 18.9% (HTR1D; radioligand binding; concentration not given, added: [3H]5-CT).
For COc1cc(C2=CCCc3c2ccc(OC)c3OC(C)c2ccc([N+](=O)[O-])s2)cc(OC)c1OC (centres unmarked), the inhibition was 9.4 ± 2% (tubulin; colchicine binding; 5 µM, added: 5.0 µM [3H]colchicine).
The -TΔS of Nc1ncnc2c1ncn2[C@@H]1O[C@H](CO[P@](=O)(O)O[P@](=O)(O)O[P@@](=O)(O)S)[C@@H](O)[C@H]1O is reported as 1.13 kcal/mol (GUK1 (Homo sapiens, UniProt Q16774, S18A); binding, ITC; added: GMP).
O=C(Nc1nc2cccc(-c3ccc(CN4CCS(=O)(=O)CC4)cc3)n2n1)C1CC1: “treatment-emergent adverse events” 10% (item: headache; human rheumatoid arthritis patients; oral, 300 mg once daily, 4 weeks, regardless of relatedness).
[2H]c1cc(C)c(NC(=O)c2cnc(Nc3cc(N4CCCCC4)nc(C)n3)s2)c(Cl)c1 gave an inhibition of greater than 50% (FGR (Homo sapiens, UniProt P09769); 0.0001 µM).
With CN1CCC(c2cc(-c3ccncc3)c(-c3ccc(F)cc3)[nH]2)CC1 the parasite growth was 82.9% (Plasmodium falciparum; LDH colourimetric; 3D7 Hyp1-Nluc; 2 µM, 72 h; reference: DMSO).
CC1=NN(c2ccccc2)C(=O)C1=NNc1ccc(S(N)(=O)=O)cc1 gave an inhibition of 35.142 ± 0.00179% (bovine α-glucosidase; enzyme activity, inhibitor, glucose oxidase; 10 µg/mL, added: maltose).
For Cc1c(-c2ccccc2)oc2c(C(=O)O)cccc2c1=O, the inhibition was roughly 46% (LRRC8A (Homo sapiens, UniProt Q8IWT6); ion current, inhibitor; HEK293; 30 µM, added: hypotonic stimulation).
CC1=NCCNC(=O)C1=NNc1ccc(S(N)(=O)=O)cc1 gave an inhibition of 47.8% (bovine α-glucosidase; enzyme activity, inhibitor, glucose oxidase; 200 µg/mL, added: maltose).
Cc1cc2c(cc1N1C(=O)c3cccc4c(CCCO)ccc(c34)C1=O)n(C)c(=O)n2C (racemic) has an inhibition of 68% (BRD7; binding, BROMOscan binding; 100 nM).
With CC(C)C[C@H](NC(=O)C[C@H](O)[C@H](CC(C)C)NC(=O)[C@H](Cc1c[nH]cn1)NC(=O)CNC(=O)[C@@H](NC(=O)[C@H](C)NC(=O)[C@H](Cc1c[nH]c2ccccc12)NC(=O)[C@H](CCC(N)=O)NC(=O)[C@@H](Cc1ccccc1)NC(=O)COCCOCCNC(=O)CN1CCN(CC(=O)O)CCN(CC(=O)O)CCN(CC(=O)O)CC1)C(C)C)C(N)=O [lutetium-177 labelled] the tissue uptake was 0.02 ± 0.01 %ID/g (female BALB/c nu/nu mice, stomach; intravenous, 50 pmol, 24 h).
CSc1cc(Oc2ccnc3[nH]c(=O)cnc23)ccc1NC(=O)Nc1cc(C(C)(C)C)nn1-c1ccccc1 — result for “phospho/total GSK-3β ratio”: 0.55 (mean of patient lines P1-P3; reverse phase protein array, item: GSK-3β pSer9; 1 µM, 4 h; reference: DMSO).
OCCCN1CC[C@@H]2C[C@H]1c1cc(-c3ccc(C(F)(F)F)cc3)ccc12 gave an inhibition of less than 50% (HRH3 (Homo sapiens, UniProt Q9Y5N1); radioligand binding, PDSP competition binding; 10 µM).
COc1cc(C(=O)NS(=O)(=O)c2ccccc2C)ccc1Cc1cn(C)c2ccc(NC(=O)OC3CCCC3)cc12 has an inhibition of 9.15% and 64.4% and 12.5% and 1.31% and 45.3% and 23.9% (Volume-regulated anion channel subunit LRRC8C, part LRRC8A IL1 chimera (LRRC8C, Homo sapiens, UniProt Q8TDW0, Y126F); ion current, inhibitor, whole-cell patch clamp; HCT LRRC8-/- cells; 0.3 µM, +100 mV).
With C[N+](C)(C)Cc1cccc(N=Nc2cccc(C[N+](C)(C)C)c2)c1 the inhibition was 10 to 20% (muscarinic receptor, Rana; agonist-induced potassium current, antagonist, double sucrose gap voltage clamp; atrial trabeculae; 20 µM, added: carbachol 5 µM).
O=C(Nc1ccc(S(=O)(=O)N2CCC(Cl)CC2)cc1)c1ccc([N+](=O)[O-])o1 has an inhibition of 21% (rat GABAA receptor; muscimol radioligand binding; brain; 10 µM).
Cc1c(-c2ccc(N3CCc4cccc(C(=O)Nc5nc6ccccc6s5)c4C3)nc2C(=O)O)cnn1CC12CC3(C)CC(C)(C1)CC(OCCNCC[C@H](O)CO)(C3)C2 gave a plasma concentration of less than 2 ng/mL (anaesthetized male beagle dog; iv infusion, 0.01 mg/kg/min, 60 min).
For COc1cc(Cl)c(C(=O)N[C@@H](CN[C@H]2CC[C@@H](N)CC2)Cc2ccc(C#N)cc2)cc1-c1ccc(CN[C@H](C)c2ccc(C)cc2)o1, the inhibition was -2% (PTGER3 (Homo sapiens, UniProt P43115); agonist response, antagonist; 10 µM; reference: agonist control).
Cn1cc(-c2cnc3ccc(NC(=O)Nc4ccc(F)c(Br)c4)cc3n2)cn1 has an inhibition of 1.5% (MAP3K6 (Homo sapiens, UniProt O95382); kinase binding, KiNativ profiling, item: Lys2 peptide; PANC-1 lysate; 2.5 µM).
For Cc1nn(-c2nc3ccc(Cl)c(Cl)c3[nH]2)c(O)c1C1OC(=O)c2ccccc21 (centres unmarked), the inhibition was 101% (Cgas (Mus musculus, UniProt Q8C6L5); enzyme activity, inhibitor, pyrophosphatase-coupled; 4 µM, 1.5 h, mouse enzyme).
For COc1cc(-c2cc(C(C)=O)n3ccccc23)cc(OC)c1Cn1ccnc1, the inhibition was 90.5% (BRD7; 1 µM).
COc1cc2ncnc(Nc3ccc(Oc4ccccc4)c(C)c3C)c2cc1OC gave an inhibition of 67% (Proto-oncogene tyrosine-protein kinase Src, N1 isoform (SRC, Homo sapiens, UniProt P12931); kinase activity, inhibitor; 1 µM).
For Cn1cc(-c2ccc(-c3cncc(Cl)c3N3CCC4(CCNC4=O)CC3)cc2)cn1, “log2 fold change” read 3.02 (COLO 205; gene expression, microarray, item: DHRS12 mRNA; concentration not given, 2 h; reference: untreated cells).
CC1=NN(c2cccc(C)c2)C(=O)C1=NNc1ccc(S(N)(=O)=O)cc1 has an inhibition of 33.3% (bovine α-glucosidase; enzyme activity, inhibitor, glucose oxidase; 100 µg/mL, added: maltose).
For Clc1cncc(OC[C@@H]2CN(CCN3CCc4ccccc43)CCO2)c1, the inhibition was 45.3% (HTR1D; radioligand binding; concentration not given, added: [3H]5-CT).
For CC(C)c1noc2ncc(C(=O)c3ccccc3O)cc12, the inhibition was 7.22% and 18.3% and 14.8% and 9.71% and 6.65% (SCN9A (Homo sapiens, UniProt Q15858); ion current, inhibitor, whole-cell patch clamp; 10 µM).
CC1=NOC(=O)C1=NNc1ccc(S(N)(=O)=O)cc1 gave an inhibition of 37.5% (bovine α-glucosidase; enzyme activity, inhibitor, glucose oxidase; 100 µg/mL, added: maltose).
NCCCNCCCCNCCCN gave a Kd of 58.7 µM (MFS-type transporter SLC18B1 (SLC18B1, Homo sapiens, UniProt Q6NT16, R137A); binder).
Cc1nn(-c2nc3c(F)cc(F)cc3s2)c(O)c1C(c1ccc(C(F)(F)F)cc1)c1c(C)nn(-c2nc3c(F)cc(F)cc3s2)c1O has an inhibition of 21.1% (Cyclic GMP-AMP synthase, catalytic domain; with DNA (CGAS, Homo sapiens, UniProt Q8N884); cGAS phase separation, inhibitor; 1.563 µM).
COc1cccc(OC[C@@H]2CN(CCN3CCc4ccccc43)CCO2)c1 has an inhibition of 55.6% (HTR1D; radioligand binding; concentration not given, added: [3H]5-CT).
For Nc1ncnc2c1ncn2[C@@H]1O[C@H](COP(=O)(O)CP(=O)(O)OP(=O)(O)O)[C@@H](O)[C@H]1O, the specific binding was 8460 corrected cpm and 4490 corrected cpm (P2X purinoceptor 1 (P2RX1, Homo sapiens, UniProt P51575, D97A); saturation binding; 103 nM).
For CC1=NN(c2cccc([N+](=O)[O-])c2)C(=O)C1=NNc1ccc(S(N)(=O)=O)cc1, the inhibition was 50.4% (bovine α-glucosidase; enzyme activity, inhibitor, glucose oxidase; 200 µg/mL, added: maltose).
For CNCCOC12CC3(C)CC(C)(CC(Cn4ncc(-c5ccc(N6CCc7cccc(C(=O)Nc8nc9ccccc9s8)c7C6)nc5C(=O)O)c4C)(C3)C1)C2, “systemic vascular resistance change” read 38% (anaesthetised male beagle dogs; intravenous bolus, 0.03 mg/kg, 90 min; reference: baseline).
For CC1=NN(c2ccccn2)C(=O)C1=NNc1ccc(S(N)(=O)=O)cc1, the inhibition was 36.2% (bovine α-glucosidase; enzyme activity, inhibitor, glucose oxidase; 50 µg/mL, added: maltose).
O=C(NO)c1ccc(CN2CCCCc3ccccc32)c(F)c1 has an inhibition of -57.2% (SLC6A3 (Homo sapiens, UniProt Q01959); radioligand binding, PDSP radioligand binding; 10 µM).
For Clc1cccc(OC[C@H]2CN(CCN3CCc4ccccc43)CCO2)c1, the inhibition was 33.2% (HTR1D; radioligand binding; concentration not given, added: [3H]5-CT).
O=c1c(O)cc([C@H]2Oc3cc(O)cc(O)c3C[C@H]2O)cc2c([C@H]3Oc4cc(O)cc(O)c4C[C@H]3O)cc(O)c(O)c12 has an inhibition of 3.65% (alpha-amylase; enzyme activity, inhibitor, DNS method; 1 µg/mL, added: soluble starch).
For CCc1oc2ccccc2c1C(=O)c1cc(Br)c(O)c(Br)c1, the inhibition was 70% (SLC22A12 (Homo sapiens, UniProt Q96S37, N237A); uric acid uptake; HEK293T transfected with SLC22A12 N237A; 0.5 µM, 10 min, 37 °C, mean, added: [14C]urate 200 µM).
The tissue uptake of CC(C)C[C@H](NC(=O)C[C@H](O)[C@H](CC(C)C)NC(=O)[C@H](Cc1c[nH]cn1)NC(=O)CNC(=O)[C@@H](NC(=O)[C@H](C)NC(=O)[C@H](Cc1c[nH]c2ccccc12)NC(=O)[C@H](CCC(N)=O)NC(=O)[C@@H](Cc1ccccc1)NC(=O)COCCOCCNC(=O)CCC(C(=O)O)N1CCN(CC(=O)O)CCN(CC(=O)O)CCN(CC(=O)O)CC1)C(C)C)C(N)=O (some centres unmarked) [lutetium-177 labelled] is reported as 0.012 ± 0.002 %ID/g (female BALB/c nu/nu mice, brain; intravenous, 100 pmol, 2 h, added: PA 300 µg).
CC1=NN(c2ccc(F)cc2)C(=O)C1=NNc1ccc(S(N)(=O)=O)cc1 gave an inhibition of 39% (bovine α-glucosidase; enzyme activity, inhibitor, glucose oxidase; 100 µg/mL, added: maltose).
O=C(CN1CCO[C@H](COc2ccccc2)C1)N1CCc2ccccc21 has an inhibition of 10.2% (HTR1D; radioligand binding; concentration not given, added: [3H]5-CT).
With CC[C@@H]1[C@H](F)C(=O)N[C@@H]1COc1nccc2cc(C(N)=O)c(OC)cc12 the inhibition was 0.5% (CDK10 (Homo sapiens, UniProt Q15131); ATP-site probe binding, ActivX profiling; THP-1 cell lysate; 0.01 mM, Lys2 site).
The inhibition of NC/C(=C\F)COc1cccc(Cn2c(=S)[nH]c(=O)c3[nH]cnc32)c1 is reported as 32% (CACNA1C (Homo sapiens, UniProt Q13936); peak ion current, inhibitor, automated patch clamp; 100 µM, pulse 10).
